Published values of several laboratories.
Numbered parts are unrelated; each lists some results of a single study.

Set 1
Target: Fragile X messenger ribonucleoprotein 1, C-terminal low-complexity region (Fmr1, Mus musculus, UniProt P35922)
Technique: RNA Bind-n-Seq
Form: RNA
Medium: in vitro
Tested at: 200 nM
Setting: whole 134-nt RNA, ends assumed
With: 150 mM KCl
Reference: input library
Direction: higher = stronger binding
Measurement: log2 enrichment
Shared flanks, not repeated: GGGAGUUCUACAGUCCGACGAUC … UGGAAUUCUCGGGUGUCAAGG
UCCUGUGCUACACAUCGUAUGUACCGAAUCGGGGAAAGGGGUUUGGGGUUUUUUUGGGGAAAGUAUUAUGUUACGCCGUUCGGAUCUGCA: 0.716
AAGUCCUGUGCUACACAUCGUAUGUACCGAAUCGGGUUUUUUUGGGUGGGUUUGGGAAAGUAUUAUGUUACGCCGUUCGGAUCUGCACUU: 0.981
UGGGAGGUGGAUUUUGUUGAUUUUUUUAGCUCAUUUCCAGGGGUGGGAAUUUUUUUUUAAUAUGUGUCAUGAAUAAAGUUGUUUUUGAAA: 0.217
UGGCUGCAGGCGCACCCCGGCAGGAUUUUGCCUCCGCUGUCGCCCCCGCAGCACCGCUACUCGGAGGGCGAGCGGACCUCCCUGGAGAAG: -0.615
UCCUGUGCUACACAUCGUAUGUACCGAAUCGGGGCCCCCCGGGCCCCCCGGCCCCCCGGAAAGUAUUAUGUUACGCCGUUCGGAUCUGCA: -0.139
UCAAGUCCUGUGCUACACAUCGUAUGUACCGAAUCGGUUUGGUUUUUGGUUUGGAAAGUAUUAUGUUACGCCGUUCGGAUCUGCACUUCC: -0.548
ACCAUGCAGGUGGGCAUCUUUGGGAAGUGGGGCAAGGGGCGGAUAGGGAGGGGGGUAACACUUUGGGAACAGGUGGUCCCAGGUCGUUUC: 0.777
UUGCGAAAAGGACCAAUUCCAGUGCCGGAACGAGCGCUGCAUCCCCUCUGUGUGGAGAUGCGACGAGGACGAUGACUGCUUAGACCACAG: -0.507

Set 2
Target: Histone acetyltransferase KAT6A, winged helix 2, GST fusion (KAT6A, Homo sapiens, UniProt Q92794, residues 85-181)
Technique: protein binding microarray
Form: double-stranded DNA, one strand shown
Medium: in vitro
Tested at: not given
Setting: 8-mer, flanks averaged, mean of 2 arrays, mostly near background
Reference: not given
Direction: higher = stronger binding
Measurement: E-score
Construct (chain): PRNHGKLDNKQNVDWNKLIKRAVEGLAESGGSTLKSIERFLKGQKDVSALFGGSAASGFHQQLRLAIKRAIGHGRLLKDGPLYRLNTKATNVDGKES
GAGCACCC: 0.0739
GGGAAAAA: -0.0561
CGCCTGGA: 0.0687
AGTCTAGG: -0.19
CCGCTTCA: 0.0983
ACAGTATG: -0.182
CCTATACC: -0.15
ACCGCATA: 0.0304

Mixed results
O=C1N[C@H](C(=O)O)CS1 — inhibition (Sarcocystis neurona; parasite growth; 10 µM, 96 h, first screen): -11.8%
COc1ccc(-c2c(Nc3ccccn3)[nH]c3c(C4=CCCCC4)c(-c4ccccc4)nn3c2=O)cc1 — AUC(tau) extrapolated share (human, plasma; oral, 100 mg QD): 0%

A few entries again (set 2):
ACAGTATG: -0.182
